# Published values pooled from the literature.
# A part holds a random share of what one study measured.
# Chain of UniProt Q13882 (whole entry, looked up): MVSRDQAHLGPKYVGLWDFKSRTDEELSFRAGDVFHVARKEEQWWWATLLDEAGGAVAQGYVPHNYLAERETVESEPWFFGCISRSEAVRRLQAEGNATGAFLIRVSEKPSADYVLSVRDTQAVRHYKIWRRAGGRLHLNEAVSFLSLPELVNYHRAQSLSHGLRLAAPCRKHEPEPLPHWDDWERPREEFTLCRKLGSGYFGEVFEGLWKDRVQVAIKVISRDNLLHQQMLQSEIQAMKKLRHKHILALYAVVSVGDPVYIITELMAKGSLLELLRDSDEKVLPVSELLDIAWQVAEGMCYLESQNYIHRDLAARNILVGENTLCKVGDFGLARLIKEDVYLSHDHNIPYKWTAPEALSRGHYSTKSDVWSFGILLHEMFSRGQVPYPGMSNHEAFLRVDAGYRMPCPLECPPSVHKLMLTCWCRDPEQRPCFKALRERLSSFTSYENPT
# Chain of UniProt Q2M2I8 (whole entry, looked up): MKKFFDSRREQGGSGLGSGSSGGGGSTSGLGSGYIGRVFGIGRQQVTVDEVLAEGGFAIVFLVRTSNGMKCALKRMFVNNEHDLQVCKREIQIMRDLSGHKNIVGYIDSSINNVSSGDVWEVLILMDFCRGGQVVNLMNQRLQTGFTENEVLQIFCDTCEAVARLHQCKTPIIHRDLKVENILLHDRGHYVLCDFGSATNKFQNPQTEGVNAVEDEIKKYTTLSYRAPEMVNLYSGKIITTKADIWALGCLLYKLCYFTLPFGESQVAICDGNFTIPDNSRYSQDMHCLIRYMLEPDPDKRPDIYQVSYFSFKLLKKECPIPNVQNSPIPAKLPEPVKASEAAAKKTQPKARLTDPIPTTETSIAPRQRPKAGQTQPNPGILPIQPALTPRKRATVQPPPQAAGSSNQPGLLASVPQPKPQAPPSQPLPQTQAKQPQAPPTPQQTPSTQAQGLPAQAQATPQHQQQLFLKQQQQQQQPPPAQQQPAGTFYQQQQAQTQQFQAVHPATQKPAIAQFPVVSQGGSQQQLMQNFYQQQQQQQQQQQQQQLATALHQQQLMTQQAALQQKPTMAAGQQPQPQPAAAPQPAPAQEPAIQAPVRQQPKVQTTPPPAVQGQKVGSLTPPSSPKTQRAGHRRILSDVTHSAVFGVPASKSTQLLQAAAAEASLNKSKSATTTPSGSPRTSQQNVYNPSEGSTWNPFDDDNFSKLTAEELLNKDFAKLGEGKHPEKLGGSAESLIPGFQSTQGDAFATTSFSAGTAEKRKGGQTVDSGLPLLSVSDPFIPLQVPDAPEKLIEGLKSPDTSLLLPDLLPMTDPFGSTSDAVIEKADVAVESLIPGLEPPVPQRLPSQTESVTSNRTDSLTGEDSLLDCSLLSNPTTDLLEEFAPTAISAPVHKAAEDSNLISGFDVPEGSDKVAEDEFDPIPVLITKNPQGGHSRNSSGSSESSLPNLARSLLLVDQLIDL
# Chain of UniProt Q15746 (whole entry, looked up): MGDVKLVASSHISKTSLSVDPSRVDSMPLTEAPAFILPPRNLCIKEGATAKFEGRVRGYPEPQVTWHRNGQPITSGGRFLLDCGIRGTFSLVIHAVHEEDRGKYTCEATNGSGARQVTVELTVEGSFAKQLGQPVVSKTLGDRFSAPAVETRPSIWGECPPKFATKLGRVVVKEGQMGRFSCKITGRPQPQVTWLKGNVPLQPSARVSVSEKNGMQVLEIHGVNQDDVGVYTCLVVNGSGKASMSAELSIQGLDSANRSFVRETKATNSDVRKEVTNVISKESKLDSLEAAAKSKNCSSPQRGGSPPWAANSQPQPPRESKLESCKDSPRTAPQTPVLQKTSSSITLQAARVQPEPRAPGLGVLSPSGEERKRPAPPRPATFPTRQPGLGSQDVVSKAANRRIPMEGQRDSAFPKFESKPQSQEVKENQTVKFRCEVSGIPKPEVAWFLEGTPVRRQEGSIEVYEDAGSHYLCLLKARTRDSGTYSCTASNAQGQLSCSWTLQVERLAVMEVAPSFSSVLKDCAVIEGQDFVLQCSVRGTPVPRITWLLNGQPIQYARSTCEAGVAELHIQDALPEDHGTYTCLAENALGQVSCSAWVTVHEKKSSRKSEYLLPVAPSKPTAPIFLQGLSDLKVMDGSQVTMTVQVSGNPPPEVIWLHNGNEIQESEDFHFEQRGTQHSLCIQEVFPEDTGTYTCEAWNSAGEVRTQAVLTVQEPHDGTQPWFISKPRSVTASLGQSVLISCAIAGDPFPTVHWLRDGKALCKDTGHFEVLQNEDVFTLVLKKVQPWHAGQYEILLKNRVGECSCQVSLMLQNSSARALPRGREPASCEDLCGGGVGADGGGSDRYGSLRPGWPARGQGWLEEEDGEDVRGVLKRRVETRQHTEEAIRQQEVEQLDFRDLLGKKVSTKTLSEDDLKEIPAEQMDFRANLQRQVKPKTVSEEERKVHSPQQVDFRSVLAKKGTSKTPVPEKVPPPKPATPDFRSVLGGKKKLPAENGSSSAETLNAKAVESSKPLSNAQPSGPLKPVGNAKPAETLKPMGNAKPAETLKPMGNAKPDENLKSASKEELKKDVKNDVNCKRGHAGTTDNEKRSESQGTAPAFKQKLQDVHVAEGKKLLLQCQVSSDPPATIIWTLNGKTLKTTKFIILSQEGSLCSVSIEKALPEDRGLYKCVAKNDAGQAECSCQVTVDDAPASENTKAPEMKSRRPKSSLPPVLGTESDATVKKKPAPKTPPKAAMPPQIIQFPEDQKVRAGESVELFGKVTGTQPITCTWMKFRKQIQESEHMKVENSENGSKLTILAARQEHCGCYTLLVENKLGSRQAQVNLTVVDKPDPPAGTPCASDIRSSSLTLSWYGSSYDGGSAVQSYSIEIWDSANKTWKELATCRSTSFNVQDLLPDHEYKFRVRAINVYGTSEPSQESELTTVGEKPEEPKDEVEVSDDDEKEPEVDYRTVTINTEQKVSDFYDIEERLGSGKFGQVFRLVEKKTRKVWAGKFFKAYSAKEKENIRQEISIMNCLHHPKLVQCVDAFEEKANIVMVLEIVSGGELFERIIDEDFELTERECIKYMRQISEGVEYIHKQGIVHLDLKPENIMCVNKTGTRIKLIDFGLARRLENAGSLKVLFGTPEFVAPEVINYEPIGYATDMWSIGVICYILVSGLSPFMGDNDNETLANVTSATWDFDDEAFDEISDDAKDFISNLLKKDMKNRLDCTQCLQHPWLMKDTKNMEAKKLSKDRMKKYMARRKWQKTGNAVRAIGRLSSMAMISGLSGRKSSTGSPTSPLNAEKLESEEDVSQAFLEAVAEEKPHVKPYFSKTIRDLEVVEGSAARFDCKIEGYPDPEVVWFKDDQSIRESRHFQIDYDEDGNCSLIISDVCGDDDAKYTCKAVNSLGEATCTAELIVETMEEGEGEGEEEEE
# Chain of UniProt P19784 (whole entry, looked up): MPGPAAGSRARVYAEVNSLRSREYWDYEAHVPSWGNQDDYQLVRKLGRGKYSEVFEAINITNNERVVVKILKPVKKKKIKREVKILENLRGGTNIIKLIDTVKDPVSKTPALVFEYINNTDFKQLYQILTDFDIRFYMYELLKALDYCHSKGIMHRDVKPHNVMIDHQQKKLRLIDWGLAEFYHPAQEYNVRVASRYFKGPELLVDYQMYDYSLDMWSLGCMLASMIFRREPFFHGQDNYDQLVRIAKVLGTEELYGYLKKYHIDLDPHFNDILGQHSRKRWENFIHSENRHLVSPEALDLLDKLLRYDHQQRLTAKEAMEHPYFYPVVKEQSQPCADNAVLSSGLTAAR
# Chain of UniProt O75716 (whole entry, looked up): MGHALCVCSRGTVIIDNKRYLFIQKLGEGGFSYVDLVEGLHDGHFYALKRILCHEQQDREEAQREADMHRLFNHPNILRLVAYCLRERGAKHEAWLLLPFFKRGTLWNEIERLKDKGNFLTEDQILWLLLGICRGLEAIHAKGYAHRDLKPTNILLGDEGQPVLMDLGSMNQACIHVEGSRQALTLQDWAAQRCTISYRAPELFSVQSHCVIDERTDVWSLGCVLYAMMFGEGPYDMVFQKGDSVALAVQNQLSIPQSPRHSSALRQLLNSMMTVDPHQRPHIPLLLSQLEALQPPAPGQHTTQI

# Series 1
# SMILES: O=C(Nc1ccccc1)Nc1cccc(Oc2ccc3nccn3n2)c1
# Concentration: 1 µM
target,assay,setting,how to read,remaining binding [%]
"MAP3K15 (Homo sapiens, UniProt Q6ZN16)",competitive binding panel,,baseline: vehicle,100
"PIK3CA (Homo sapiens, UniProt P42336, H1047Y)",competitive binding panel,,baseline: vehicle,98
"Aurora kinase B (AURKB, Homo sapiens, UniProt Q96GD4)",competitive binding panel,,baseline: vehicle,92
"STK32C (Homo sapiens, UniProt Q86UX6)","competitive binding panel, item: YANK3",,baseline: vehicle,100
"DYRK1B (Homo sapiens, UniProt Q9Y463)",competitive binding panel,,baseline: vehicle,55
"CDK9 (Homo sapiens, UniProt P50750)",competitive binding panel,,baseline: vehicle,100
"MAPKAPK5 (Homo sapiens, UniProt Q8IW41)",competitive binding panel,,baseline: vehicle,100
"NLK (Homo sapiens, UniProt Q9UBE8)",competitive binding panel,,baseline: vehicle,78
"MYLK (Homo sapiens, UniProt Q15746)",competitive binding panel,,baseline: vehicle,100
"PTK6 (Homo sapiens, UniProt Q13882)",competitive binding,BRK,,100

# Series 2
# Target: Serine/threonine-protein kinase pim-1 (PIM1, Homo sapiens, UniProt P11309)
# Chain of UniProt P11309 (whole entry, looked up): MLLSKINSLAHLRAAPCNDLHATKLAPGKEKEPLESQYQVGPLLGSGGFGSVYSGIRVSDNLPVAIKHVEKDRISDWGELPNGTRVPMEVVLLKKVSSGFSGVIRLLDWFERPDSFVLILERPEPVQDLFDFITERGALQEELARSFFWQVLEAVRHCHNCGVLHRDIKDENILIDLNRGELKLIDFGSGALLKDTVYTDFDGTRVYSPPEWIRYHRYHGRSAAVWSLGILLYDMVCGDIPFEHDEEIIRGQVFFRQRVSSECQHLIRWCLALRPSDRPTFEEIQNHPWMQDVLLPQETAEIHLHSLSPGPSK
# Effect on: enzyme activity
# Mode: inhibitor
# Concentration: 0.5 µM
# Baseline: control
SMILES,remaining activity
COc1ccc(C(=O)Nc2sc3c(c2C(N)=O)CCCC3)cc1OC,98.9%
Nc1[nH]nc2nc3ccccc3nc12,94%
Cn1sc(=O)n(Cc2ccccc2)c1=O,93%
O=c1c2ccccc2[nH]c(=S)n1CCN1CCC(=C(c2ccc(F)cc2)c2ccc(F)cc2)CC1,105%
COc1ccc(OC)c2c(=S)c3ccccc3[nH]c12,93%
Cc1nc(-c2ccccc2)c(-c2ccncc2)o1,105%
CO[C@H]1C[C@@H]2CC[C@@H](C)[C@@](O)(O2)C(=O)C(=O)N2CCCC[C@H]2C(=O)O[C@H]([C@H](C)C[C@@H]2CC[C@@H](O)[C@H](OC)C2)CC(=O)[C@H](C)/C=C(\C)[C@@H](O)[C@@H](OC)C(=O)[C@H](C)C[C@H](C)/C=C/C=C/C=C/1C,104%
O=C(CCCc1ccc(-c2ccccc2F)cc1)Nc1ccc(O)cc1,97.9%
CC(C)[C@H](CO)Nc1nc(Nc2cc(N)cc(Cl)c2)c2ncn(C(C)C)c2n1,98%
Cc1ccc(Nc2nccc(N(C)c3ccc4c(C)n(C)nc4c3)n2)cc1S(N)(=O)=O,100%
CCOC(=O)c1c(C)[nH]c(/C=C2\C(=O)Nc3ccccc32)c1C,95.8%
N#CC(C#N)=C(N)/C(C#N)=C/c1ccc(O)cc1,103%
Cc1ccc(NC(=O)c2ccc(CN3CCN(C)CC3)cc2)cc1Nc1nc(-c2cccnc2)cs1,86.4%
C#Cc1cccc(Nc2ncnc3cc(OCCOC)c(OCCOC)cc23)c1,97%
Nc1ccc2ncnc(NCCc3ccc(Oc4ccccc4)cc3)c2c1,102%
Cn1c2ccccc2c2c3c(c4c5ccccc5n(CCC#N)c4c21)CNC3=O,36.1%

# Series 3
# Target: Calcium/calmodulin-dependent protein kinase type II subunit alpha (CAMK2A, Homo sapiens, UniProt Q9UQM7)
# Chain of UniProt Q9UQM7 (whole entry, looked up): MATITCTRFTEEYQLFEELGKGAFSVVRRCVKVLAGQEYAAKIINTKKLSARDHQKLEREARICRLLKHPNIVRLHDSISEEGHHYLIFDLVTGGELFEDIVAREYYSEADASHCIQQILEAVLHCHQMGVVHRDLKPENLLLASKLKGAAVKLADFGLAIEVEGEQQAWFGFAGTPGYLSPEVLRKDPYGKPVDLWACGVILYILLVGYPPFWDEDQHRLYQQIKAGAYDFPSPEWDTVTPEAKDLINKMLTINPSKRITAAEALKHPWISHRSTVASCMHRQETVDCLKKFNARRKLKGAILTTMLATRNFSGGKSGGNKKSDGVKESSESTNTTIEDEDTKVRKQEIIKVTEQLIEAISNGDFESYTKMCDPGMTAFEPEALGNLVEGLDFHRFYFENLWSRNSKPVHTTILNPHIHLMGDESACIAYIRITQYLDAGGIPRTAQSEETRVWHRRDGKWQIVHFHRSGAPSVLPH
# Effect on: enzyme activity
# Mode: inhibitor
# Concentration: 10 µM
Compound,inhibition
COc1ccccc1OCCNCC(O)COc1cccc2[nH]c3ccccc3c12 (stereo not drawn),-9%
O=C(O)[C@H]1CSC(c2nc3ccc(O)cc3s2)=N1,-16%
NC(=O)[C@@H](N)Cc1c[nH]c2ccccc12,2%
Cc1cccc(C)c1NC(=O)C(C)N (stereo not drawn),-8%
O=C(Nc1nc2cccc(-c3ccc(CN4CCS(=O)(=O)CC4)cc3)n2n1)C1CC1,7%
CCN(CC)CCOc1ccc(/C(=C(/Cl)c2ccccc2)c2ccccc2)cc1,-6%
Cc1c(OCC(F)(F)F)ccnc1C[S@@+]([O-])c1nc2ccccc2[nH]1,-1%
O=C(O)c1ccc2c(c1)OCO2,-4%
O=C[C@H](O)[C@@H](O)[C@H](O)[C@H](O)CO[C@H]1O[C@H](CO[C@H]2O[C@H](CO)[C@H](O)[C@H](O)[C@H]2O)[C@H](O)[C@H](O)[C@H]1O,-4%
CCC(Cc1c(I)cc(I)c(N)c1I)C(=O)O (stereo not drawn),-6%

# Series 4
# SMILES: CN([C@@H]1CCc2c(CC(=O)O)c3ccccc3n2C1)S(=O)(=O)c1ccc(F)cc1
# Concentration: 1 µM
target,assay,remaining binding [%]
"DMPK (Homo sapiens, UniProt Q09013)","cell-free assay, competition with immobilised ligand",100
"AKT2 (Homo sapiens, UniProt P31751)","cell-free assay, competition with immobilised ligand",95
"FLT3 (Homo sapiens, UniProt P36888, D835H)","cell-free assay, competition with immobilised ligand",91
"AAK1 (Homo sapiens, UniProt Q2M2I8)",binding,100
"HCK (Homo sapiens, UniProt P08631)","cell-free assay, competition with immobilised ligand",95
"ACVR1B (Homo sapiens, UniProt P36896)","cell-free assay, competition with immobilised ligand",96
"MAP3K1 (Homo sapiens, UniProt Q13233)","cell-free assay, competition with immobilised ligand",62
"MAP2K1 (Homo sapiens, UniProt Q02750)","cell-free assay, competition with immobilised ligand",100
"HASPIN (Homo sapiens, UniProt Q8TF76)","cell-free assay, competition with immobilised ligand",100
"NEK3 (Homo sapiens, UniProt P51956)","cell-free assay, competition with immobilised ligand",93
"STK16 (Homo sapiens, UniProt O75716)","cell-free assay, competition with immobilised ligand",99
"CSNK2A2 (Homo sapiens, UniProt P19784)","cell-free assay, competition with immobilised ligand",100
